Results from different studies.
Protocols differ between the studies behind these lines. Numbers after ± are the reported error.
Rac GTPase-activating protein 1: Rac GTPase-activating protein 1 (Homo sapiens, UniProt Q9H0H5)
ELANE: Neutrophil elastase (ELANE, Homo sapiens, UniProt P08246)
USP14: Ubiquitin carboxyl-terminal hydrolase 14 (USP14, Homo sapiens, UniProt P54578)
AVPR1A: Vasopressin V1a receptor (AVPR1A, Homo sapiens, UniProt P37288)

Compound | target | test | test system | conditions | inhibition
Nc1ccc2c(c1)OC1(CCCCC1)O2 | Rac GTPase-activating protein 1 | GAP activity, malachite green phosphate |  | concentration not given, orthogonal retest | 30.1%
COc1cc(OC)c(F)c(/C=C/c2cnc3ccn(S(=O)(=O)c4cn(CCF)cn4)c3n2)c1F | PDGFRA (Homo sapiens, UniProt P16234) |  |  | 1000 nM | 0%
Cc1ccc(CN(C)C(=O)C(CCc2ccccc2)NC(=O)C(NC(=O)c2ccc(OCc3ccccc3)cc2)C(C)O)cc1 (stereo not shown) | ELANE | enzyme activity, inhibitor |  | 100 µM | 0%
O=C(Nc1ccc(C(F)F)cc1)[C@H](CC1CCCCC1)Nc1nn2c(=O)ccnc2s1 | Low molecular weight phosphotyrosine protein phosphatase, isoform A (ACP1, Homo sapiens, UniProt P24666) | enzyme activity, inhibitor |  | 10 µM, LMPTP-A isoform | 4%
CNC(=O)C[C@H](Cc1ccc(C#N)cc1)NC(=O)c1cc(-c2ccc(CN[C@H](C)c3ccc(C)cc3)o2)ccc1Cl | P2Y purinoceptor 2 (P2RY2, Homo sapiens, UniProt P41231) | calcium signal, antagonist |  | 10 µM | 0%
C=CC(=O)N1Cc2nc(-c3cc(-c4cc(Cl)cnc4Cl)c(F)cc3F)n(-c3ccncn3)c2C1 | 5'-AMP-activated protein kinase catalytic subunit alpha-1, with beta2, gamma1 (PRKAA1, Homo sapiens, UniProt Q13131) | kinome panel |  | 1 µM | -1.8%
Cc1ccc(C=C2SC(=O)NC2=S)o1 | USP14 | enzyme activity, inhibitor |  | 17 µM | 73%
CC(C)(C)CNC(=O)C[C@H](NC(=O)CCc1ccccc1)C(=O)N[C@@H](Cc1cccnc1)C(=O)NCc1ccccc1Cl | ELANE | enzyme activity, inhibitor |  | 100 µM | 1%
CCc1nc2ccc(Cl)cn2c1C(=O)NC/C=C(\C)CC/C=C(\C)CCC=C(C)C | Cytochrome b, in bc1 complex (COB, Candida albicans, UniProt P0C8L0) | cytochrome c reduction |  | 10 and 1 µM | no inhibition
Cc1[nH]nc2c1N=C(c1ccccc1Cl)c1cnc(N3CCOCC3)cc1N2 | GABBR1 (Homo sapiens, UniProt Q9UBS5) |  |  | 10 µM, human off-target panel | 0%
Clc1ccc(NCc2ccc(Br)cc2)cc1 | Rac GTPase-activating protein 1 | enzyme activity, inhibitor, ADP detection |  | 10 µM | 99.2%
CC(C)NC(=O)[C@H](CCc1ccccc1)NC(=O)[C@H](CC(=O)NCC(C)(C)C)NC(=O)CCc1ccccc1 | F12 (Homo sapiens, UniProt P00748) | enzyme activity, inhibitor |  | 100 µM | 35%
COc1ncc2nc(C)n(Cc3ncc(S(N)(=O)=O)cc3F)c2c1-c1ccccc1 | PTGS1 (Homo sapiens, UniProt P23219) | enzyme activity, inhibitor |  | 10 µM, safety panel | 0.0998%
C[Si](C)(C)C[C@H](CN)CC(=O)O | GABAA receptor, rat | binding, radioligand binding |  | 250 µM, added: [3H]flunitrazepam | 5%
Cc1ccc(CNC(=O)[C@H](CCc2ccccc2)NC(=O)[C@H](CC(=O)NCC(C)(C)C)NC(=O)CCc2cccc(F)c2)cc1 | ELANE | enzyme activity, inhibitor |  | 100 µM | -5%
CN(C)C/C=C/C(=O)Nc1ccc2nc(NCCCCCN(C)C)nc(NCCCCCCN(C)C)c2c1 | SETD7 (Homo sapiens, UniProt Q8WTS6) | enzyme activity, inhibitor, radiometric |  | 50 µM | 59%
C#CC[C@]1(O)C[C@H](C)N2CCc3cc(OCc4cc(C)cc(C)c4)c(OCc4cc(C)cc(C)c4)cc3[C@@H]2C1 (relative stereo) | Rab GDP dissociation inhibitor beta, with Rab1A (Homo sapiens, UniProt P50395) | GDI2-Rab1A interaction, NanoLuc complementation |  | 6.25 µM | 72.8%
CCn1cc(C(=O)O)c(=O)c2c(N)c(F)c(NC3CCCCC3)cc21 | BUB1B (Homo sapiens, UniProt O60566) | kinase activity |  | 0.1 µM, added: ATP at Km | 25.5%
O=C(O)C1Nc2ccc(Br)cc2C2C=CCC12 (stereo not shown) | Rac GTPase-activating protein 1 | GAP activity, malachite green phosphate |  | concentration not given, orthogonal retest | 63.2%
Cc1ccc(N)cc1C(=O)N[C@H](C)c1cccc2ccccc12 | Replicase polyprotein 1ab, papain-like protease (rep, Porcine epidemic diarrhea virus, UniProt P0C6Y4) | enzyme activity, inhibitor, FRET |  | 10 µM | 65.5%
Cc1cc(N2CCOCC2)nc2cc(Cl)ccc12 | Rac GTPase-activating protein 1 | enzyme activity, inhibitor, ADP detection |  | 10 µM | 53.4%
Cn1ccc2cc(-n3c(=O)[nH]c4sc5c(c4c3=O)CCCC5)ccc21 | Neuronal acetylcholine receptor; alpha3/beta4 (Homo sapiens, UniProt P30926+P32297) | cell-free assay, radioligand |  | 10 µM | 3%
O=C(NN=C1CC(=NNC(=O)c2ccncc2)c2ccccc21)c1ccncc1 | USP14 | enzyme activity, inhibitor |  | 17 µM | 94%

Compound | target | test | test system | conditions | inhibition
COCC(=O)N1CCc2cc(-c3csc(NC(=O)c4cc(OC)cc(OC)c4)n3)ccc21 | SIGMAR1 (Homo sapiens, UniProt Q99720) | cell-free assay |  | 10 µM | -20%
Cc1cccc(O[C@H]2CCC[C@@H](C(C)CNCc3ccncc3)C2)c1 (relative stereo) | PRKCG (Homo sapiens, UniProt P05129) | enzyme activity |  | 10 µM | -9%
NC1=CC(=O)c2ccccc2C1=O | USP14 | enzyme activity, inhibitor |  | 17 µM | 69%
O=C1c2sc(-c3ccc(N4CCC(F)C4)nc3F)nc2CCN1c1cccnc1 (stereo not shown) | AVPR1A | ligand displacement, radioligand |  | 1 µM | -14%
CC(=O)C12NC(C)(C)CC1(C)C(=O)C1=C2c2c(c3c4n2C(C)(C)CC2=C4C4(CC(C)(C)NC(C)(C4)C2=O)CC3(C)C)C(=O)C(C)(C)N1 (single isomer, unassigned; (-)) | Glutamate NMDA receptor; GRIN1/GRIN2B (GRIN1/GRIN2B, Homo sapiens, UniProt Q05586+Q13224) | ion current, antagonist, whole-cell patch clamp | HEK293T | 10 µM | 2.89 ± 0.02%
CCSc1nnc2c(n1)OC(C(=O)c1ccccc1)Nc1ccccc1-2 (stereo not shown) | USP14 | enzyme activity, inhibitor |  | 17 µM | 12%
COc1ccc2c(c1)CCc1sc(N)nc1-2 | Rac GTPase-activating protein 1 | enzyme activity, inhibitor, ADP detection |  | 20 µM | 91.4%
Cc1cc(O)c2c(c1O)C(=O)c1cc(O)cc(O)c1C2=O | AVPR1A | calcium mobilization, antagonist, fluorimetry |  | 50 µM, added: 10 nM vasopressin | 50 ± 2.12%
C[C@H](NC(=O)[C@H](CC(=O)NCC(C)(C)C)NC(=O)C(=O)c1c[nH]c2ccccc12)C(=O)NCc1ccc(F)cc1F | ELANE | enzyme activity, inhibitor |  | 100 µM | -4%
CCn1cc(-c2cccc(C(F)(F)F)c2)c2sc(C(=N)NC3CCS(=O)(=O)CC3)cc2c1=O | EP300 (Homo sapiens, UniProt Q09472) |  |  | 1 µM | 24%
O=C(O)C1Nc2ccc(Cl)cc2C2C=CCC12 (stereo not shown) | Rac GTPase-activating protein 1 | enzyme activity, inhibitor, ADP detection |  | 10 µM | 73.2%
COc1cccc(-c2cccc(N3CCNCC3)c2)c1 | srtA (Staphylococcus aureus, UniProt Q2FV99) | enzyme activity, inhibitor |  | 200 µM | 63.7%
CCOC(=O)N1CCN(C(=S)Nc2ccc3nsnc3c2)CC1 | USP14 | enzyme activity, inhibitor |  | 17 µM | 66%
N=C(N)NCCCC(NC(=O)C(CC(=O)NO)Cc1ccc2ccccc2c1)C(=O)NC(Cc1c[nH]c2ccccc12)C(=O)NC(CCC(=O)O)C(N)=O (stereo not shown) | Matrix metalloproteinase-15 (Homo sapiens, UniProt P51511) |  |  | 1 µM | 9%
C[Si]1(C[C@H](CN)CC(=O)O)CCCC1 | GABAA receptor, rat | binding, radioligand binding |  | 70 µM, added: [3H]flunitrazepam | 7%
O=C1C2=C(C(=O)c3ccccc31)C(c1ccccc1O)c1sc(=O)[nH]c1S2 (stereo not shown) | USP14 | enzyme activity, inhibitor |  | 17 µM | 62%
Cc1ccc(C)n1-c1ccc(OCC(=O)O)cc1 | Rac GTPase-activating protein 1 | GAP activity, malachite green phosphate |  | concentration not given, orthogonal retest | 75.3%
CC1Cc2ccccc2N1C(=O)CN1CCN(c2ccccc2)CC1 (stereo not shown) | HTR2B (Homo sapiens, UniProt P41595) | radioligand binding |  | concentration not given, added: [3H]LSD | 80%
CCOC(=O)c1cnc2c(C)cc(C)cc2c1NCCCN(C)C | Rac GTPase-activating protein 1 | GAP activity, malachite green phosphate |  | concentration not given, orthogonal retest | 59.2%
CCOC(=O)N1CCN(c2cc(NCCCC(=O)O)c3c4c(onc24)-c2ccccc2C3=O)CC1 | USP14 | enzyme activity, inhibitor |  | 17 µM | 68%
CN1CCN(Cc2ccc(-c3ccc(CO[C@H]4CCC[C@@H]4NC(=O)c4cc(-c5cnn(C)c5)cnc4N)cc3)cc2)CC1 | MASTL (Homo sapiens, UniProt Q96GX5) | enzyme activity, inhibitor |  | 0.1 µM | 7%
COC(=O)c1sc2nc[nH]c(=O)c2c1CC(=O)O | USP14 | enzyme activity, inhibitor |  | 17 µM | 43%
CN(Cc1ccc(/C=C/C(=O)NO)cc1)CC12CC3CC(CC(C3)C1)C2 | alpha2 adrenoceptor | antagonist radioligand binding |  | 0.05 µM | -7%

A few entries again:
Compound | target | test | test system | conditions | inhibition
COc1ccc2c(c1)CCc1sc(N)nc1-2 | Rac GTPase-activating protein 1 | enzyme activity, inhibitor, ADP detection |  | 20 µM | 91.4%
Cc1cc(O)c2c(c1O)C(=O)c1cc(O)cc(O)c1C2=O | AVPR1A | calcium mobilization, antagonist, fluorimetry |  | 50 µM, added: 10 nM vasopressin | 50 ± 2.12%
C[C@H](NC(=O)[C@H](CC(=O)NCC(C)(C)C)NC(=O)C(=O)c1c[nH]c2ccccc12)C(=O)NCc1ccc(F)cc1F | ELANE | enzyme activity, inhibitor |  | 100 µM | -4%
